Assay results collected from several papers.
Parts stem from different laboratories: compare values within a part only.
Chain of UniProt Q96J87 (21-233, looked up): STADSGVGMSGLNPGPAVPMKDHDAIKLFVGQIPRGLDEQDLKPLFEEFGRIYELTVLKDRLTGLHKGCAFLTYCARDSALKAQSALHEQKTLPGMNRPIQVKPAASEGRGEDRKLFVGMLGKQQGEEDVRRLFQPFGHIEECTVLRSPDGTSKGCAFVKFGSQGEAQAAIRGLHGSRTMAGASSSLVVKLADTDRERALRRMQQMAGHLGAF

Set 1
Target: Sal-like protein 4, full length isoform B (SALL4, Homo sapiens, UniProt Q9UJQ4-2, residues 1-616)
Method: universal PBM
Molecule type: double-stranded DNA, one strand shown
Sample: in vitro
Concentration: not given
Setting: 8-mer, flanks averaged, mean of replicates
Direction: higher = stronger binding
Target sequence (chain): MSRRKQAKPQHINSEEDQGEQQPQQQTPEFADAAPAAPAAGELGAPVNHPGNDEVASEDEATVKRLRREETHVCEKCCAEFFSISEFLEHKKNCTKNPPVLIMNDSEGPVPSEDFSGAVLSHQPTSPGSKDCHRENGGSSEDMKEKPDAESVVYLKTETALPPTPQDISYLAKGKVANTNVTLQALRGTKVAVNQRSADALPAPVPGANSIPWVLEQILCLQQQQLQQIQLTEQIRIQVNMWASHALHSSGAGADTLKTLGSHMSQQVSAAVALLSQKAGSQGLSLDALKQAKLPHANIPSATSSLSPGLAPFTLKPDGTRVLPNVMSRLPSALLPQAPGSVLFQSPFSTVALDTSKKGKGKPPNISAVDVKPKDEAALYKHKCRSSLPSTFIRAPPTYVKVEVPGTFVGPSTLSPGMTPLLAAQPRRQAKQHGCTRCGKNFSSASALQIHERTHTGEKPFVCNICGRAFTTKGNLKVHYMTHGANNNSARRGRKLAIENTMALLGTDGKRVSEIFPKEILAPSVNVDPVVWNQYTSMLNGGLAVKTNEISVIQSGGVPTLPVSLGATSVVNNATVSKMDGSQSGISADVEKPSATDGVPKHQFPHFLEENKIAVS
The E-score of `CGGGTCGC` is reported as -0.24.
`CGTTGTGA` gave an E-score of 0.0256.
The E-score of `ACATGGGC` is reported as -0.137.
For `CATGGCAC`, the E-score was -0.171.
`AATGCCTA` gave an E-score of 0.0701.
For `GGGGGAAA`, the E-score was -0.0361.

Set 2
Target: Histone acetyltransferase KAT6A, winged helix 1, GST fusion (KAT6A, Homo sapiens, UniProt Q92794, residues 1-85)
Method: protein binding microarray
Molecule type: double-stranded DNA, one strand shown
Sample: in vitro
Concentration: not given
Setting: 8-mer, flanks averaged, mean of 2 arrays, mostly near background
Relative to: not given
Direction: higher = stronger binding
Construct (chain): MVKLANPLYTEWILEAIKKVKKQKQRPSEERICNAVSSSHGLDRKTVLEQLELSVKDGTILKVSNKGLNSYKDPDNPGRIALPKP
With `CTTGTACA` the E-score was -0.191.
The E-score of `TCGTATAA` is reported as -0.104.
The E-score of `ACTGTAAA` is reported as -0.105.
The E-score of `AAGCCGGT` is reported as 0.316.
The E-score of `ACTCGTGC` is reported as 0.0647.
`AATTGATC` has an E-score of -0.0396.
The E-score of `AACCACGC` is reported as 0.147.
With `GGAGATTA` the E-score was 0.0688.

Single results of other studies
With `AAAAAAAA (biotin)` the signal ratio was 0.0391 (CUGBP Elav-like family member 6 (CELF6, Homo sapiens, UniProt Q96J87, residues 21-233); protein domain microarray; RNA, in vitro; not given, poly(A) 8-mer RNA, whole probe, immobilized GST-fusion domains, most near background; relative to: GST loading signal, higher = stronger binding).
The fold induction of `PhoQ, residues 284 288 289 292 302 303 SMMNNA` is reported as 1.15 (PhoP, residues 12 14 15 18 19 SYFRT (Escherichia coli, UniProt P23836); Sort-seq, item: YFP reporter; E. coli; PhoQ-PhoP variant library, together with: 10 µM Mg2+; relative to: high Mg2+ state, higher = stronger signaling).

For quick reference, copied from above (set 1):
The E-score of `CGGGTCGC` is reported as -0.24.
`CGTTGTGA` gave an E-score of 0.0256.
